# Results gathered from unrelated publications.
# Each numbered part is a random draw from the data of one study; scales do not carry over between parts. Positions count from the first letter of the parent shown.

# Series 1
# Target: Runt-related transcription factor 3, Runt domain (RUNX3, Homo sapiens, UniProt Q13761, residues 53-186)
# Chain of UniProt Q13761 (53-186, looked up): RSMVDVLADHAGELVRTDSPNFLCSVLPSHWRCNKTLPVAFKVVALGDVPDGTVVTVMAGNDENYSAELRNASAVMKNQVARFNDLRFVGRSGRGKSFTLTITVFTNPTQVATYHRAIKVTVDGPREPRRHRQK
# Technique: protein-binding microarray
# Molecule type: hairpin DNA
# Medium: in vitro
# Tested at: not given
# Setting: whole hairpin DNA, median over replicate spots
# Reference: not given
# Direction: higher = stronger binding
Oligonucleotide,median fluorescence [a.u.]
GAGGCCTGTCGCGCTTGGCCTCCTGGCCAAGCGCGACAGGCCTCACACTC,5070
GAGGCCCAACCGCAACAGCCTCCTGGCTGTTGCGGTTGGGCCTCACACTC (5mC at 11),5440
GAGGCCTGTCGCGGGTGGCCTCCTGGCCACCCGCGACAGGCCTCACACTC (5mC at 30),5460
CTCAGCGCTGTGGGCTGGACTCCTGTCCAGCCCACAGCGCTGAGACACTC (5mC at 38),4370
CTCAGTTCTGTGGCGTGGACTCCTGTCCACGCCACAGAACTGAGACACTC (5mC at 14),4290
GAGGCCTCGTGCGGTTGGCCTCCTGGCCAACCGCACGAGGCCTCACACTC (5mC at 36),6000
GAGGCCTGTTGCCGTTGGCCTCCTGGCCAACGGCAACAGGCCTCACACTC (5mC at 13),4760
GAGGCCTGTTGCAGTTGGCCTCCTGGCCAACTGCAACAGGCCTCACACTC,4630

# Series 2
# Target: RNA binding protein fox-1 homolog 2, RRM domain, GST-SBP tag (RBFOX2, Homo sapiens, UniProt O43251-10, residues 100-194)
# Technique: RNA Bind-n-Seq
# Molecule type: RNA
# Medium: in vitro
# Tested at: 365 nM
# Setting: natural RNA segment, single round, ends assumed
# Reference: no-protein control
# Direction: higher = stronger binding
# Constant ends, left off below: GGGAGUUCUACAGUCCGACGAUC … UGGAAUUCUCGGGUGCCAA
# Target sequence (chain): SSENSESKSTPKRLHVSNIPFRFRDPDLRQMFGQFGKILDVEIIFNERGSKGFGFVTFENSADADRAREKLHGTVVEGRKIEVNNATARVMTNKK
Oligonucleotide,RBNS enrichment (R)
CUUUCUUGGAAAUGGACCUUCUGUCCCUUCCAUUUGGACACCACAGUGGAAGCUGGUGGCCUGGAAGGAAGGAUUAGGUCAUGGACAUUUGAACAGGUGCCUUGGGCAUG,0.385
CAAAGAACAUUCUCUUUCAUCUAUAAAGAAAUUCUUAAAGAUGCAUUGACAGUGUUGAAUUACCAACAGCCUGUGAAGAUCAGUUUGACCGGUGUGGACACGUGCUGGUU,0.299
UGAAGGAUGCCCAUCUCCACCAGGACAGACUAGCAAAGGCAGUCUGGACACCAUGCUGGGCCUGCUGCAGUCUGACCUCAGCCGUCGUGGUGUCCCCACACAGGCCAAAG,0.243
ACUGUUGGCUGCUGCCCUCCUUCCCAGUGAAAGGUACAAAGCAAUAAGCAUCAUGCAUCCUCCCCUUACCCCUCCAACACCCCUCUGCCUCUGGCUCAGGUUGCUCAAAG,1.33
GUGAACGCUAAGAAGUUUCAGACAAGCAGAGAGCUCUAUUUUUAGAAGAAAUAUGUUACACUCAGAAAUGAUGAAACCAAAUCUUAUAUUAAAAGGCAAAGAUGACGGAG,0.443
CUUGCUUAAUUUCUACAGGCUGUCUUGUCUUUCAUAUGCUAACCACUAUCUUAAAAUGAAAGACAAGUGCUUUUCUUUUUCUUGCUGUUUUUUAAGAUAAUUUCACCCUG,0.877
UGUCCCUCUCUGGCUUGGUCCCCUUCCUCCCUACUUUCUGUAAAUAUCUGUAUCUAAACCAGAAUAUUUUGGUCAAAUAUAAAACAAUAAUAAAAAAAGUUCUGAUGUCA,0.37
AGAGCAGUGGUUAAGACAGACUUUGGGAUCAAAUCACCCUAGGUGCGGGCAGGUUUCUAGGCUGCUCUAAGCUUCUACCUUGAAGGCAGUUGGGUCUGAUAAUAGUACCU,0.321

# Series 3
# Target: CCNA2, cyclin fold, Cln2 fusion (human)
# Technique: yeast growth competition, sequencing
# Medium: yeast
# Setting: strong parent motif
# Reference: not given
# Direction: higher = stronger binding
# Parent: RBL2 docking peptide (human); STTRRRLFVENDS; partner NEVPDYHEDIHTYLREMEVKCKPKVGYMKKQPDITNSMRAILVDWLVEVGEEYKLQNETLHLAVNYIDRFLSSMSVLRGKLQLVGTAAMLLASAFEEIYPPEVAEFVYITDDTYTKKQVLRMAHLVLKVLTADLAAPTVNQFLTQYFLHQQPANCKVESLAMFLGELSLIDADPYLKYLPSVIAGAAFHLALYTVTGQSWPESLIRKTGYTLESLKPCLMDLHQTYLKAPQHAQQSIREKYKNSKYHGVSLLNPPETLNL
Change,normalised enrichment score
STTRRRLFVENDM [S13M],5.56
STTRRRLFVENYS [D12Y],5.51
STTRRMLFVENDS [R6M],3.32
STTRRREFVENDS [L7E],0.136
STTDRRLFVENDS [R4D],-0.903
STTRRRLFVEEDS [N11E],5.64
STTRRWLFVENDS [R6W],1.11
STTRRRLFAENDS [V9A],6.46

# Further values, each from its own experiment
SMILES,species,medium,tested at,time,quantity,result
CCCc1ncc(C(O)c2ccc(OCC)cc2)n1C (stereo not shown),human,microsomes or S9,2 µM,0.5 h,remaining compound,22%

# A few entries again (series 1):
Oligonucleotide,median fluorescence [a.u.]
GAGGCCCAACCGCAACAGCCTCCTGGCTGTTGCGGTTGGGCCTCACACTC (5mC at 11),5440
